Assay results from different studies.
Numbers after ± are the reported error.
Cell line: human neutrophils

`CCCCCc1c(C)nn(CC(=O)Nc2ccc(Br)cc2)c(=O)c1Nc1cccc(OC)c1` gave an EC50 of 5700 ± 1200 nM (calcium flux, agonist).
The EC50 of `C[C@@](Cc1c[nH]c2ccccc12)(NC(=O)Nc1ccc([N+](=O)[O-])cc1)C(=O)NCC1(c2ccccn2)CCCCC1` is reported as 190 ± 70 nM (calcium mobilisation, agonist; added: 2.5 mM probenecid).
The IC50 of `CC1(C)CC[C@]2(C(=O)O)CC[C@]3(C)C(=CC[C@@H]4[C@@]5(C)CC[C@H](O)C(C)(C)[C@@H]5CC[C@]43C)[C@@H]2C1` is reported as 1500 ± 180 nM (calcium mobilization; 30 min, added: fMLF 5 nM).
With `COc1cccc(Cc2c(C)c(C)nn(CC(=O)Nc3ccc(Br)cc3)c2=O)c1` the EC50 was 270 ± 60 nM (chemotaxis, agonist; 1 h).
The EC50 of `COc1ccc(C2(CNC(=O)[C@](C)(Cc3c[nH]c4ccccc34)NC(=O)Nc3ccc([N+](=O)[O-])cc3)CCCCC2)nc1` is reported as 720 ± 210 nM (calcium mobilisation, agonist; without probenecid).
The EC50 of `CC1=NN(CC(=O)Nc2ccc(Br)cc2)C(=O)CC1C` (racemic) is reported as 13000 ± 1800 nM (calcium mobilization, agonist).
For `COc1cccc(Nc2c(C(=O)C3CCCCC3)c(C)nn(CC(=O)Nc3ccc(Br)cc3)c2=O)c1`, the EC50 was 28900 ± 6600 nM (calcium flux, agonist).
`(+)-episesamin` has an IC50 of 30400 ± 2600 nM (calcium flux, antagonist; 30 min pretreatment, room temperature, added: 5 nM fMLF).
With `CCC(C(=O)Nc1ccc(Br)cc1)n1nc(C)cc(Cc2cccc(OC)c2)c1=O` (racemic) the EC50 was 1800 nM (calcium mobilization, agonist).
`Cc1nn(CC(=O)Nc2ccc(Br)cc2)c(=O)cc1-c1ccccc1` has an EC50 of 2100 ± 530 nM (chemotaxis, agonist; 1 h).
`C[C@H](CCC(=O)O)[C@H]1CC[C@H]2[C@@H]3[C@H](O)C[C@@H]4C[C@H](O)CC[C@]4(C)[C@H]3CC[C@]12C` gave an IC50 of 21400 ± 1600 nM (calcium mobilization; 30 min, added: fMLF 5 nM).
`COc1cccc(Cc2cc(C)nn([C@H](C)C(=O)Nc3ccc(Br)cc3)c2=O)c1` gave an EC50 of 1400 nM (calcium mobilization, agonist).

Repeated from above:
`C[C@H](CCC(=O)O)[C@H]1CC[C@H]2[C@@H]3[C@H](O)C[C@@H]4C[C@H](O)CC[C@]4(C)[C@H]3CC[C@]12C` gave an IC50 of 21400 ± 1600 nM (calcium mobilization; 30 min, added: fMLF 5 nM).
